Results of several laboratories.
Protocols differ between the studies behind these lines.
Organism: Klebsiella pneumoniae

CC[C@H](C)[C@H](NC(=O)CNC(=O)[C@H](CC(=O)O)NC(=O)[C@H](CCCNC(=N)N)NC(=O)[C@@H](NC(=O)[C@H](CC(N)=O)NC(=O)[C@H](CCCNC(=N)N)NC(=O)CNC(=O)[C@@H](NC(=O)[C@H](CCCCN)NC(=O)[C@H](CCC(=O)O)NC(=O)[C@@H](NC(=O)[C@H](CCCCN)NC(=O)[C@H](CCCCN)NC(=O)[C@H](Cc1ccccc1)NC(=O)[C@@H](NC(=O)[C@H](CCCCN)NC(=O)[C@H](Cc1c[nH]c2ccccc12)NC(=O)[C@@H](N)CCCNC(=N)N)[C@@H](C)CC)[C@@H](C)CC)C(C)C)C(C)C)C(=O)N[C@H](C(=O)N[C@@H](CCCCN)C(=O)N[C@@H](C)C(=O)NCC(=O)N1CCC[C@H]1C(=O)N[C@@H](C)C(=O)N[C@H](C(=O)N[C@@H](C)C(=O)N[C@H](C(=O)N[C@H](C(=O)NCC(=O)N[C@@H](CCC(N)=O)C(=O)N[C@@H](C)C(=O)N[C@@H](C)C(=O)N[C@H](C(=O)N[C@H](C(=O)N[C@H](C(=O)N[C@@H](CCCCN)C(N)=O)C(C)C)C(C)C)[C@@H](C)O)C(C)C)C(C)C)C(C)C)[C@@H](C)CC  MIC (NCCP 15866 carbapenem-resistant): 2 µM
CC[C@H](C)CCCCC(=O)N[C@@H](CCN)C(=O)N[C@H](C(=O)N[C@@H](CCN)C(=O)N[C@H]1CCNC(=O)[C@H]([C@@H](C)O)NC(=O)[C@H](CCN)NC(=O)[C@H](CCN)NC(=O)[C@H](CC(C)C)NC(=O)[C@@H](CC(C)C)NC(=O)[C@H](CCN)NC1=O)[C@@H](C)O  MIC (broth microdilution; ATCC 43816 acrAB overexpressor, cation-adjusted MHB): 1 µg/mL
CC(=O)N[C@@H](C)C(=O)N[C@@H](CCCCN)C(=O)N[C@@H](CC(C)C)C(=O)N[C@@H](CC(C)C)C(=O)N[C@@H](CCCCN)C(=O)N[C@@H](CC(C)C)C(=O)N[C@@H](CC(C)C)C(=O)N[C@@H](CCCCN)C(=O)N[C@@H](CCCCN)C(=O)N1CCC[C@H]1C(=O)N[C@@H](CC(C)C)C(=O)N[C@@H](CCCCN)C(=O)N[C@@H](CC(C)C)C(=O)N[C@@H](CC(C)C)C(=O)N[C@@H](CCCCN)C(N)=O  MIC (broth microdilution; ATCC 700603; 18 h, 37 °C, compound alone): > 80 µM
NCC[C@H](O)C(=O)N[C@@H]1C[C@H](N)[C@@H](O[C@H]2O[C@H](CN)[C@@H](O)[C@H](O)[C@H]2O)[C@H](O)[C@H]1O[C@H]1O[C@H](CO)[C@@H](O)[C@H](N)[C@H]1O  MIC (broth microdilution; KPC-127 producing): > 128 µg/mL
CC1=C[C@@H]2CN(C(=O)N2OS(=O)(=O)O)[C@@H]1C(N)=O  MIC (ATCC 700603, ESBL-positive; compound alone): > 128 µg/mL
CC[C@H](C)[C@H](NC(=O)[C@H](C)NC(=O)[C@H](CCCCN)NC(=O)[C@H](CCCCN)NC(=O)[C@H](CCCCN)NC(=O)[C@H](CCCCN)NC(=O)[C@H](CCCCN)NC(=O)[C@@H](N)CCCCN)C(=O)N[C@@H](CO)C(=O)NCC(=O)N[C@@H](CO)C(=O)N[C@@H](CC(C)C)C(=O)N[C@H](C(=O)N[C@H](C(=O)N[C@@H](CC(C)C)C(=O)N[C@@H](Cc1ccccc1)C(=O)NCC(=O)N[C@@H](Cc1ccc(O)cc1)C(N)=O)[C@@H](C)O)C(C)C  MIC (broth microdilution; ATCC 13883; highest value reported): 64 µM
CC(=O)N[C@@H](CCCCN)C(=O)N[C@@H](CCCCN)C(=O)N[C@@H](CC(C)C)C(=O)N[C@@H](CC(C)C)C(=O)N[C@@H](CCCCN)C(=O)N[C@@H](CC(C)C)C(=O)N[C@@H](CC(C)C)C(=O)N[C@@H](CCCCN)C(=O)N[C@@H](CCCCN)C(=O)N1CCC[C@H]1C(=O)N[C@@H](CC(C)C)C(=O)N[C@@H](CCCCN)C(=O)N[C@@H](C)C(=O)N[C@@H](CC(C)C)C(=O)N[C@@H](CCCCN)C(N)=O  MIC (broth microdilution; ATCC 700603; 18 h, 37 °C, compound alone): > 80 µM
CN(C)[C@@H]1C(O)=C(C(N)=O)C(=O)[C@@]2(O)C(O)=C3C(=O)c4c(O)cnc(-c5ccccc5)c4C[C@H]3C[C@@H]12.Cl.Cl  MIC (tet(A)-carrying): > 32 µg/mL
CCCCCCCCCC(=O)N[C@@H](Cc1c[nH]c2ccccc12)C(=O)N[C@H](CC(N)=O)C(=O)N[C@@H](CC(=O)O)C(=O)N[C@@H]1C(=O)NCC(=O)N[C@@H](CCCN)C(=O)N[C@@H](CC(=O)O)C(=O)N[C@H](C)C(=O)N[C@@H](CC(=O)O)C(=O)NCC(=O)N[C@H](CO)C(=O)N[C@@H]([C@H](C)CC(=O)O)C(=O)N[C@@H](CC(=O)c2ccccc2N)C(=O)O[C@@H]1C  MIC (broth dilution; ATCC 27736): inactive
CC[C@H](C)[C@H](NC(=O)[C@H](CC(C)C)NC(=O)[C@H](CCCCN)NC(=O)[C@@H](NC(=O)[C@H](C)NC(=O)[C@H](CCC(=O)O)NC(=O)[C@H](Cc1c[nH]cn1)NC(=O)[C@@H](NC(=O)[C@H](CCCCN)NC(=O)[C@H](CCC(N)=O)NC(=O)[C@H](Cc1ccccc1)NC(=O)[C@@H](N)C(C)C)[C@@H](C)CC)[C@@H](C)CC)C(N)=O  MIC (CLSI broth microdilution; ATCC 13883; 18 h, 37 °C): > 128 µM

Repeated from above:
CC[C@H](C)CCCCC(=O)N[C@@H](CCN)C(=O)N[C@H](C(=O)N[C@@H](CCN)C(=O)N[C@H]1CCNC(=O)[C@H]([C@@H](C)O)NC(=O)[C@H](CCN)NC(=O)[C@H](CCN)NC(=O)[C@H](CC(C)C)NC(=O)[C@@H](CC(C)C)NC(=O)[C@H](CCN)NC1=O)[C@@H](C)O  MIC (broth microdilution; ATCC 43816 acrAB overexpressor, cation-adjusted MHB): 1 µg/mL
